Results of several laboratories.
Parts stem from different laboratories: compare values within a part only.

Series 1 — method: protein binding microarray; molecule type: double-stranded DNA, one strand shown; matrix: in vitro; tested at: not given; reference: not given; direction: higher = stronger binding
Target: Histone acetyltransferase KAT6A, both winged helices, GST fusion (KAT6A, Homo sapiens, UniProt Q92794, residues 1-181)
Notes: 8-mer, flanks averaged, mean of 2 arrays, mostly near background
Construct (chain): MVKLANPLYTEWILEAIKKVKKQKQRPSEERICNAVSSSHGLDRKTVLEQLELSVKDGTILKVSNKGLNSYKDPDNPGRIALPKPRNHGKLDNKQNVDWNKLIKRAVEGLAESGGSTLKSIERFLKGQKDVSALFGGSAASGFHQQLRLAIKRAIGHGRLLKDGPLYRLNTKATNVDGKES
The E-score of `ACTTATAC` is reported as 0.0203.
With `CCACATAG` the E-score was -0.0666.
For `TGCCGAAA`, the E-score was 0.0745.
With `ACATAGCC` the E-score was -0.0516.
With `CCAGATCC` the E-score was -0.157.

Series 2 — method: RNAcompete; molecule type: RNA; matrix: in vitro; tested at: 20 nM; notes: 7-mer, probes averaged, single round; reference: mean of 7-mers; direction: higher = stronger binding
Target: PABPC1L2, full length, GST fusion (mouse, UniProt A0ABA7IW68)
Target sequence (chain): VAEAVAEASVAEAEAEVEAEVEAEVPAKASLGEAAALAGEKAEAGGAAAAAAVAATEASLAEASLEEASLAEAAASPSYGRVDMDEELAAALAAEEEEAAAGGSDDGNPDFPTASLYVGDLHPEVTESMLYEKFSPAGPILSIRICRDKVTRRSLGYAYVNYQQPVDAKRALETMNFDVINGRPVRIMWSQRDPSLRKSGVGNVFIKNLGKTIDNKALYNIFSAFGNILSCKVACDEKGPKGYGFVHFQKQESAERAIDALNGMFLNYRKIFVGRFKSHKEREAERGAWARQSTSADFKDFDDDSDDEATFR
The 7-mer Z-score of `UAAAGGC` is reported as 0.314.
`UCCCUCA` gave a 7-mer Z-score of -0.342.
The 7-mer Z-score of `GCGAAUA` is reported as 0.0605.

Single results of other studies
IRF5 K96S/S451D/S453D/S456D/S462D full length, phosphomimetic: Interferon regulatory factor 5, full length, phosphomimetic (IRF5, Homo sapiens, UniProt Q13568-2, residues 1-514, K96S/S451D/S453D/S456D/S462D)
IRF3 S386D/S396D/S398D/S402D/T404D/S405D full length, phosphomimetic: Interferon regulatory factor 3, full length, phosphomimetic (IRF3, Homo sapiens, UniProt Q14653, residues 1-427, S386D/S396D/S398D/S402D/T404D/S405D)
UniProt Q14653, sequence (whole entry, unmodified, looked up): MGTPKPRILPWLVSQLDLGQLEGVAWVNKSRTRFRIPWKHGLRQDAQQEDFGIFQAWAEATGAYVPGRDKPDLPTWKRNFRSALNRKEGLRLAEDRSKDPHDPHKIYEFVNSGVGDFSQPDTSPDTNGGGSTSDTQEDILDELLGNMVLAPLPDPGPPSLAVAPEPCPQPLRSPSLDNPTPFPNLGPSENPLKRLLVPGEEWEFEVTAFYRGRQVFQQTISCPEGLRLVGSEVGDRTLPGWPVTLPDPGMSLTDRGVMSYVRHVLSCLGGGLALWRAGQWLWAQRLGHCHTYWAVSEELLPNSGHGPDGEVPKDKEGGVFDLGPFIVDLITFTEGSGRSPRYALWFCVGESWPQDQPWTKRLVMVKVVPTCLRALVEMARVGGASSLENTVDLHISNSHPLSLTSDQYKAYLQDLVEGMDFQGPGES
`GCCTAGCACTTAGCACTGGGGACTGGATTAGTGCTAGTCTTGATTCGCTTGACGCTGCTG` gave a log fluorescence of -0.388 z-score (IRF5 K96S/S451D/S453D/S456D/S462D full length, phosphomimetic; protein-binding microarray; double-stranded DNA, one strand shown, in vitro; 250 nM, 60-bp whole probe, with: salmon DNA 0.4 mg/ml; reference: random background probes, higher = stronger binding).
`PhoQ, residues 284 288 289 292 302 303 SIHMAM` gave a fold induction of 3.63 (PhoP, residues 12 14 15 18 19 LWHCS (Escherichia coli, UniProt P23836); Sort-seq, measured: YFP reporter; E. coli; PhoQ-PhoP variant library, with: 10 µM Mg2+; reference: high Mg2+ state, higher = stronger signaling).
With `GCCTAGCACAAGCCATTGGTCTTCACTTGGTGCTAGGTCTTGATTCGCTTGACGCTGCTG` the log fluorescence was -0.00845 z-score (IRF5 K96S/S451D/S453D/S456D/S462D full length, phosphomimetic; protein-binding microarray; double-stranded DNA, one strand shown, in vitro; 250 nM, 60-bp whole probe, with: salmon DNA 0.4 mg/ml; reference: random background probes, higher = stronger binding).
`GCCTAGCACATGGTCCTCTCTCTATTCAGGTGCTAGGTCTTGATTCGCTTGACGCTGCTG`: “fitted relative affinity” 0.86 z-score (IRF3 S386D/S396D/S398D/S402D/T404D/S405D full length, phosphomimetic; protein-binding microarray; double-stranded DNA, one strand shown, in vitro; 2540 nM top, 60-bp whole probe, with: salmon DNA 0.4 mg/ml; reference: random background probes, higher = stronger binding).
Under “fitted relative affinity”, `GCCTAGCACGACCAGGGGCCACAGCCTCAGTGCTAGGTCTTGATTCGCTTGACGCTGCTG` is recorded as -1.1 z-score (IRF3 S386D/S396D/S398D/S402D/T404D/S405D full length, phosphomimetic; protein-binding microarray; double-stranded DNA, one strand shown, in vitro; 2540 nM top, 60-bp whole probe, with: salmon DNA 0.4 mg/ml; reference: random background probes, higher = stronger binding).

Repeated from above (single results of other studies):
With `GCCTAGCACAAGCCATTGGTCTTCACTTGGTGCTAGGTCTTGATTCGCTTGACGCTGCTG` the log fluorescence was -0.00845 z-score (IRF5 K96S/S451D/S453D/S456D/S462D full length, phosphomimetic; protein-binding microarray; double-stranded DNA, one strand shown, in vitro; 250 nM, 60-bp whole probe, with: salmon DNA 0.4 mg/ml; reference: random background probes, higher = stronger binding).
